Assay results pooled from the literature.
Parts stem from different laboratories: compare values within a part only.

Sample 1
Target: Histone acetyltransferase KAT6A, winged helix 2, GST fusion (KAT6A, Homo sapiens, UniProt Q92794, residues 85-181)
Method: protein binding microarray
Form: double-stranded DNA, one strand shown
Sample: in vitro
Concentration: not given
Notes: 8-mer, flanks averaged, mean of 2 arrays, mostly near background
Reference: not given
Reading: higher = stronger binding
Target sequence (chain): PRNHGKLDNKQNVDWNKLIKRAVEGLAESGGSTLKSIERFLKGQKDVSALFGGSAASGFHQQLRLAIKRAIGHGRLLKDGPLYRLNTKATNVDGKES
| Strand | E-score |
| --- | --- |
| ATACCGAA | 0.126 |
| ACTTGCCA | -0.0369 |
| ATGCAACA | -0.00792 |
| CGTACAAG | -0.107 |
| CGTTGATA | 0.0114 |
| TCGCTGAA | 0.133 |
| AACGACCT | -0.0418 |
| ATGCGCTC | 0.0377 |
| GCTGCGCA | 0.213 |
| GAACATCC | 0.0859 |
| ATACACCG | 0.113 |
| GGCTAAAA | -0.188 |
| CCTAGCGC | 0.0577 |
| GCCCCTCC | 0.0605 |
| AACTAACT | -0.142 |
| CCTGACCA | 0.0662 |
| GCAGAGAC | -0.0719 |
| CAAGGAGC | -0.038 |

Sample 2
Target: Sal-like protein 4, full length isoform A (SALL4, Homo sapiens, UniProt Q9UJQ4, residues 1-1053)
UniProt Q9UJQ4, sequence (whole entry, looked up): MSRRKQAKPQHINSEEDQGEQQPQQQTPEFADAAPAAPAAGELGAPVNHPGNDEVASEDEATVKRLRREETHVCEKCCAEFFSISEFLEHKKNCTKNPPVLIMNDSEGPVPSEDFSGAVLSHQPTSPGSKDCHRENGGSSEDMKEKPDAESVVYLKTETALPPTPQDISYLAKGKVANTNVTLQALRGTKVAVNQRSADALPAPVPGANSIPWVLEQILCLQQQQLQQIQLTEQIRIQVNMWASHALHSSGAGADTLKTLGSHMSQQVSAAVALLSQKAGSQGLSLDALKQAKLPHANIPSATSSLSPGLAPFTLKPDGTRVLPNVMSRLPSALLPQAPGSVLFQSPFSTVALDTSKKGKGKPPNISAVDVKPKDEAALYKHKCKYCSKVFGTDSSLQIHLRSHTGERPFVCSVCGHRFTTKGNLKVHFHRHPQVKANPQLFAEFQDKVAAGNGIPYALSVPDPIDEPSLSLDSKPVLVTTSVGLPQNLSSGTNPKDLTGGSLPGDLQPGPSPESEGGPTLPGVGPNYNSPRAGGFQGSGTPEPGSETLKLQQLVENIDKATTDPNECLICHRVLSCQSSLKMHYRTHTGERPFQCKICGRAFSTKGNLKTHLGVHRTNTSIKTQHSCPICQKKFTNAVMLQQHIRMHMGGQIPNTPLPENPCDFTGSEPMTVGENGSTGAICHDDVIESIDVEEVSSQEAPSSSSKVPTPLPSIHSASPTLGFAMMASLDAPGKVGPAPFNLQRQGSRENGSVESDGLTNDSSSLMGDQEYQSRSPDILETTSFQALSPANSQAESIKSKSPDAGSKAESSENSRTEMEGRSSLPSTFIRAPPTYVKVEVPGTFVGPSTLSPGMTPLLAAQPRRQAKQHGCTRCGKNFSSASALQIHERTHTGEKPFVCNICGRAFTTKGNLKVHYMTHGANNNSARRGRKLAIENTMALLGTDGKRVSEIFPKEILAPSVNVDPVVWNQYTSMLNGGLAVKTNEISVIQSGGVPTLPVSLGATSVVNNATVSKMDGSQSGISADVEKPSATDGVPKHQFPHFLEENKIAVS
Method: universal PBM
Form: double-stranded DNA, one strand shown
Sample: in vitro
Concentration: 600 nM
Notes: 8-mer, flanks averaged, mean of replicates
Reading: higher = stronger binding
| Strand | E-score |
| --- | --- |
| GTGCCTCA | -0.242 |
| ACCTACCT | -0.0343 |
| AGACAAGA | 0.106 |
| AAGGGAAT | 0.0936 |
| AAAAACTC | 0.116 |
| CATAACCC | 0.105 |
| CCATTGTC | 0.0137 |
| CAACTTGA | 0.147 |
| CCGATACC | -0.253 |
| ACCTCGTG | 0.036 |
| AATGCTTG | 0.00698 |
| ATGAGTCC | -0.055 |
| TAGTACCA | 0.00833 |
| GCTGACAC | -0.103 |
| CCAACACC | -0.239 |
| GACCGCAC | -0.231 |
| AGGCTCAC | -0.258 |

Sample 3
Target: PABPC1L2, full length, GST fusion (mouse, UniProt A0ABA7IW68)
Method: RNAcompete
Form: RNA
Sample: in vitro
Concentration: 20 nM
Notes: 7-mer, probes averaged, single round
Reference: mean of 7-mers
Reading: higher = stronger binding
Residues (chain): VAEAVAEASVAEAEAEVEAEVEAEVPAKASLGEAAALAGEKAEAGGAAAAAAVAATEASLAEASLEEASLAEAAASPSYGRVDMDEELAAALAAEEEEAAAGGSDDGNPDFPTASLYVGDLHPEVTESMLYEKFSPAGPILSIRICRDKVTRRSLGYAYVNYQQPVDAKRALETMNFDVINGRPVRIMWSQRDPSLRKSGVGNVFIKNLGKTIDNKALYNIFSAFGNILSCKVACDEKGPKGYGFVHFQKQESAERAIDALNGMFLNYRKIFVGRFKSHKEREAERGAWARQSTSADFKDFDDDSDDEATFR
| Strand | 7-mer Z-score |
| --- | --- |
| UCUGAUG | -0.171 |
| AGGAGGG | 0.358 |
| AUCUAGC | -0.153 |
| AACCACC | 0.1 |
| AGUCUCC | -0.34 |
| CAGGCCA | -0.119 |
| GGAGGGU | 0.434 |
| AUGCACG | 0.0968 |
| CGGGAGG | 0.0841 |
| CUGUCGC | -0.407 |
| CACACAA | 0.171 |
| CGGUAGA | 0.0877 |
| AACUAGU | -0.115 |
| AAGUACA | 0.492 |
| AUCACCU | -0.206 |
| GGUUCUA | -0.164 |
| UUCACUU | -0.32 |
| UGUUGGG | -0.124 |
| GCCAUCG | -0.253 |
| UGGGAGC | 0.271 |
| CCAUGUA | -0.0971 |
| GAAGUCU | -0.275 |
| AUGCUCU | -0.242 |
| UAACGUG | -0.155 |
| AGCCAAC | -0.249 |

Sample 4
Target: Hepatocyte nuclear factor 3-alpha (Foxa1, Mus musculus, UniProt P35582, residues 1-468, full length assumed)
UniProt P35582, sequence (whole entry, looked up): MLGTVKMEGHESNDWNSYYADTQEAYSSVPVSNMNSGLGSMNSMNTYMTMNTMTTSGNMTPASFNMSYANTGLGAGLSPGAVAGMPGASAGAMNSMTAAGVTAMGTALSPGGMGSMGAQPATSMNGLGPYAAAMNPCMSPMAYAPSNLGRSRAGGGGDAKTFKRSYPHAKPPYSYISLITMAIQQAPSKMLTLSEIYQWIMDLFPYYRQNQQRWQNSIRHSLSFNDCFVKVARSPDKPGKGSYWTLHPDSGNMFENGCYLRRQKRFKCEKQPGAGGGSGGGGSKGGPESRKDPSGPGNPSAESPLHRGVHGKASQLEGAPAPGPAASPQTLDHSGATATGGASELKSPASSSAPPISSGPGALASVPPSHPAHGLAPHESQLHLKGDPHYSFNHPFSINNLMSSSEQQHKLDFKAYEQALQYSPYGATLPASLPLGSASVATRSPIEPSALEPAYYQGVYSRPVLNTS
Method: EMSA with sequencing
Form: double-stranded DNA, one strand shown
Sample: in vitro
Concentration: 10 and 20 nM
Notes: whole designed probe, mean of two concentrations, ends assumed
Reference: negative control set to 0
Reading: higher = stronger binding
Constant ends, left off below: GTGAGCGGTGCCCATTGATGGGGAAC … TTTCACTGGGATCGTGGGGAC
| Strand | normalised bound fraction [ratio] |
| --- | --- |
| CTCTAAAGGAAGGCTAACTAGTTCACAGAGCCAAGGAATCCAATTTCAGAAACGCAGATAGGCAGAGTGGGTAAACAAAGCTGCACTGTAACTGTTTACTTTTCTTGCCAATTATTTGCCTAGCTGCTTCTCTCCATTCTCCAAGATCCAAAAGTGCAATTCACTGAACTATCAGTGTGGCAGCAAAATACCT | 0.482 |
| ATCTTACCCTTGCTGGGAGTAAACAAAGTTATAAACAGTTGTTTTAAAAAAATAGTTGGTTTCAGATGAAAAATTTCTGTATTCAATTTGTCTAGAGTACCTAGAATGCCACGGTAGCACTTCTCCCCCAGGGAAATATGTTGGACATTTCTGTTTCAGTGTACCGCCTGTCACTAATGCCATGGAAACCCAG | 0.117 |
| AATGTGTGTACTTACTAGACTACAGTATAGTGTAATTTTAACTTAAGTATGTACTGGAAAACCAAAACATTCATGCGACTTGTTTTATTGCAGAAATTACTTTATTAGGTGATCTGGAACAGAACCCACAGTATCTTCAAGGTATGTGTATACTTCTCTAAATCAAATTTAATCTGATCCAAGCCTTCATCTC | 0.0799 |
| CGGCAGTGGGCGTGGCTAGGTGGGGCGGGACGGAGCCGCGGCGGAGGATGGGGCGGGGTTTCATGGGGTAAGCGGGGCCGAAATAGAGCCTGTTATTTACTCTGGTTCACAGGCAGCATGTCTTTGGTTTTCTGACTACTTCTTGTCCTGTGAAGCAGCGTTGCTGCCTGCCTATTTTAAGTTAATGTTTCAA | 0.219 |
| CATTAGAGTCAAAGTTGTTAAGGGGAGCTAGTCATAGCTACCACGTGGCCAGGCATGTGGAACCAGACACCAGGATGAATCATCACACATAAAGTAAATAGATGAATAATGCTGACAACCTAGTTCATAGTGACACACTACTTGAGATATATAGAATAACATTATTACCCAGTAAGTATGTGAACATTCCGAT | 0.435 |

Sample 5
Target: RNA binding protein fox-1 homolog 2, RRM domain, GST-SBP tag (RBFOX2, Homo sapiens, UniProt O43251-10, residues 100-194)
Method: RNA Bind-n-Seq
Form: RNA
Sample: in vitro
Concentration: 365 nM
Notes: natural RNA segment, single round, ends assumed
Reference: no-protein control
Reading: higher = stronger binding
Constant ends, left off below: GGGAGUUCUACAGUCCGACGAUC … UGGAAUUCUCGGGUGCCAA
Construct (chain): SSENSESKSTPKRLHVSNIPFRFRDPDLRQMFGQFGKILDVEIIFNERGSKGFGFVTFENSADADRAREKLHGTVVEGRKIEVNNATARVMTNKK
| Strand | RBNS enrichment (R) |
| --- | --- |
| AUAACUUGCUAAACAAGUAUUCCAAAAAUUUGAUCUAGUCAAUCCAUUGUGUGAAUCUCAAAUAUCUCAAGACACGCAGCCUAAGCAUCUCCAUUAUCCCGUGCACAUAA | 0.512 |
| CUCUUUAAAUACAUUAUGGAAGAUAAUGAAGAUACUUCAUUCUCUUGUGAUAUCAGUGUAUGCGUACCUGUGUCGCUUUAUUUGCAGUGUGUUGAGGGACUGGUGUAUCC | 0.293 |
| CACUUGAGAGAGGAGAGUGCUCCUCUCACCCAGGCCAGUGCUCCUGUCACUUCAGCACAUCUUCCACAGCUGCCCAGCUGUCUUUGGUGUGUCCCGGAGGAACAGGCUAA | 0.195 |
| AAAGUUUCAUUCUGUCAGAAAUAAGCCAUAGUACAGACUCAGAGAUAGAGGCAGUUUCUAGAGAACUCGGUCUUAUCGUGGGUUCUGGAGCACACCUCUCAGACCAGUCA | 0.297 |
| GGCCUUAAAGGAAAUGGACAAAAAUUAUCCAGAAGGGGUACUUUUCCAUUGUAUCUUUCUAAUAAGGGUUUAAAAUGGUACUAUUAUGGUAUUGUACUUGGGCUUUAACA | 0.381 |
| CAAAAAAUAGCUUUCAAAAGAAAUUUAAGUUCUAUGAGAAAUUCCUUAGUCAUGGUGUUGCGUAAAUCAUAUUUUAGCUGCACGGCAUUACCCCACACAGGGUGGCAGAA | 0.673 |
| CACAGUCAUGAACUUUUGUUUUUCUCCCUUUUUUAGUUUUUUCAAAGAUGGGGGGAAGGGAAAUAUGAGCCUUUGUUGCUUUCAAAACGAGAACAGUUUGUACAAGUUUU | 0.556 |
| UGUCCACAGCUUGGGCCAGGCUUCCCCUGUCCUCCCACCGGUCGGCUGCUUGGCAAGGCUGUUCAGGACGUGCACUUCCCCAAGUCGGCACUGAGUGGCCCAGCACCGCC | 0.44 |

Repeated from above (sample 3):
| Strand | 7-mer Z-score |
| --- | --- |
| AGUCUCC | -0.34 |
| UUCACUU | -0.32 |
| GCCAUCG | -0.253 |
| AGCCAAC | -0.249 |
| CUGUCGC | -0.407 |
| UAACGUG | -0.155 |
| AACCACC | 0.1 |
| GAAGUCU | -0.275 |
| AAGUACA | 0.492 |
| CCAUGUA | -0.0971 |
